Measured values collected from several papers.
Each numbered part is a random draw from the data of one study; scales do not carry over between parts.

Set 1 — technique: competition protein-binding microarray; molecule type: double-stranded DNA, one strand shown; matrix: in vitro; concentration: 2 µM; added: Pho4 competitor, 0.05 µM; direction: higher = stronger binding
Target: Centromere-binding protein 1, full length, His-tagged (CBF1, Saccharomyces cerevisiae, UniProt P17106, residues 1-351)
Sequence of UniProt P17106 (whole entry, looked up): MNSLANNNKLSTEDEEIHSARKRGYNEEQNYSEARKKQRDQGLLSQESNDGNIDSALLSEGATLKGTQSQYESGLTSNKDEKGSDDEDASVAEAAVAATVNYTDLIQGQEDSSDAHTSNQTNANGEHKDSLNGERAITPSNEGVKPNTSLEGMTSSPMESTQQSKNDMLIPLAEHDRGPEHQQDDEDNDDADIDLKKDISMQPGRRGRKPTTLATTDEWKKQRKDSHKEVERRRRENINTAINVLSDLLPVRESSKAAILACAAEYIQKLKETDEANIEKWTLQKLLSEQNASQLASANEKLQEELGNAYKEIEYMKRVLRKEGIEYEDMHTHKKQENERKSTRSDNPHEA
Notes: whole 60-bp probe, lowest competitor level
Oligonucleotide	fluorescence intensity [a.u.]
CTTTCCCGATCTTGTCACACGACTTTAGCACATTTGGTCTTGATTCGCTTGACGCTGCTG	128
CGTCCTAGTGATTTTCACGTGCTGTCCATGAGGAAGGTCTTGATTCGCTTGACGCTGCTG	1090
CTTCTGTAAATTTGCGCGGTGGGTGGACGCGCCCCGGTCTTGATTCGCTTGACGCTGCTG	94.4
CGGGGTTAAGTTTGGCAAGTGGGTGGCTTGCAGCAGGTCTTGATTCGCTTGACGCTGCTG	81.4
ACAAAGAGAGATGAATCCGTGCGATCCATTGTAGAAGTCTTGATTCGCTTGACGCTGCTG	52.3

Set 2 — technique: RNAcompete; molecule type: RNA; matrix: in vitro; concentration: 20 nM; notes: 7-mer, probes averaged, single round; relative to: mean of 7-mers; direction: higher = stronger binding
Target: PABPC1L2, full length, GST fusion (mouse, UniProt A0ABA7IW68)
Construct (chain): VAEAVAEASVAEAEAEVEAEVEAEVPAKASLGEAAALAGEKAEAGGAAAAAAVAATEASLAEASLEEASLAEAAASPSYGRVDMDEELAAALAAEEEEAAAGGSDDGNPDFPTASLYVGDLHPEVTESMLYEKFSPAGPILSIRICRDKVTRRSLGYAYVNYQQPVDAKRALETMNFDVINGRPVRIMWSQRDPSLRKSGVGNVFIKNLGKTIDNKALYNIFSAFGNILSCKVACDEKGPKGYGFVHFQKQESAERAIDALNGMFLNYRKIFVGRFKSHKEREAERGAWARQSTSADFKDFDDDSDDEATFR
Oligonucleotide	7-mer Z-score
UUUUGGA	0.0551
GAGUUUU	-0.374
GUGGCGG	0.26
AACUCAU	-0.0989
CGAUGCU	-0.286
CAGCAGA	0.186
CUACCCG	-0.295
GAUGCUA	-0.0826

Set 3 — technique: universal PBM; molecule type: double-stranded DNA, one strand shown; matrix: in vitro; concentration: 600 nM; direction: higher = stronger binding
Target: Sal-like protein 4, full length isoform A (SALL4, Homo sapiens, UniProt Q9UJQ4, residues 1-1053)
Sequence of UniProt Q9UJQ4 (whole entry, looked up): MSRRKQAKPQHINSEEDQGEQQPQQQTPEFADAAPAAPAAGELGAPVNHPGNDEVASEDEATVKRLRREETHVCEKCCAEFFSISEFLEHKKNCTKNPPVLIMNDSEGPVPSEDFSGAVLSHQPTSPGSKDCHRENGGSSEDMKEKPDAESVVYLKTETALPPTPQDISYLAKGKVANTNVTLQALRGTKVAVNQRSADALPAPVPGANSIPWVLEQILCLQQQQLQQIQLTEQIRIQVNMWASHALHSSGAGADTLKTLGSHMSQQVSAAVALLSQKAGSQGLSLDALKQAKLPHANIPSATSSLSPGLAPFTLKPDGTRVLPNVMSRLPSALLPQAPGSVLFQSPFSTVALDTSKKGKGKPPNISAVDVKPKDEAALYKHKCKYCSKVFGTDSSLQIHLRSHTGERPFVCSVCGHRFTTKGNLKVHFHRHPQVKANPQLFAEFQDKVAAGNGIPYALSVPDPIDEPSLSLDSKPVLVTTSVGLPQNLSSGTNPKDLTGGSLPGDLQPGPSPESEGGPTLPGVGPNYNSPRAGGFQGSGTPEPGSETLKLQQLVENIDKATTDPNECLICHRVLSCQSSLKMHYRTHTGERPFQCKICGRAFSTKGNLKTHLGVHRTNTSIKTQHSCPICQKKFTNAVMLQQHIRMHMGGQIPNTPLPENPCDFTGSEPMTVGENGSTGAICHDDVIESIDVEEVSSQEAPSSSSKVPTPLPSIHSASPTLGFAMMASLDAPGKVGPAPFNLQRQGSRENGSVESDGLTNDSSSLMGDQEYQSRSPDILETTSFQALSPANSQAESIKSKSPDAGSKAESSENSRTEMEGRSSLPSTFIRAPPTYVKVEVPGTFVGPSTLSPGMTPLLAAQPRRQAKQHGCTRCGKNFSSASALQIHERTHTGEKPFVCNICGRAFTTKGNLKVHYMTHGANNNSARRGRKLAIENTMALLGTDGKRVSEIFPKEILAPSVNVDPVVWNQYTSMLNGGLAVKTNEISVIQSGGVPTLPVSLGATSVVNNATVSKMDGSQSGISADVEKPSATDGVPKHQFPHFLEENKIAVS
Notes: 8-mer, flanks averaged, mean of replicates
Oligonucleotide	E-score
ACGGCAAA	-0.012
ACACGATA	0.155
TAAGACAA	0.183
AATTTAAC	0.174
ATCTCGTG	-0.146
CGCCCGCA	-0.267

Further values, each from its own experiment
Molecule	target	test	system	conditions	how to read	endpoint	value
PhoQ, residues 284 288 289 292 302 303 GNNTDL	PhoP, residues 12 14 15 18 19 LWHVM (Escherichia coli, UniProt P23836)	Sort-seq, measured: YFP reporter	E. coli	PhoQ-PhoP variant library, added: 10 µM Mg2+	relative to: high Mg2+ state, higher = stronger signaling	fold induction	6.48

Repeated from above (set 2):
Oligonucleotide	7-mer Z-score
GUGGCGG	0.26
AACUCAU	-0.0989
CGAUGCU	-0.286
